Experimental data collected from several papers.
Every numbered part comes from another study and shows a few of its results, in no order.

Set 1 — method: RNA Bind-n-Seq; molecule type: RNA; medium: in vitro; concentration: 200 nM; setting: whole 134-nt RNA, ends assumed; with: 150 mM LiCl; baseline: input library; reading: higher = stronger binding; measurement: log2 enrichment; library: 7-deaza-guanosine replaces G
Target: Fragile X messenger ribonucleoprotein 1, C-terminal low-complexity region (Fmr1, Mus musculus, UniProt P35922)
Shared flanks, not repeated: GGGAGUUCUACAGUCCGACGAUC … UGGAAUUCUCGGGUGUCAAGG
UGCUUCUGAGUUGCCCAGGAGACCACUGGCAGAUGUCCCGGCGAAGAGAAGAGACACAUUGUUGGAAGAAGCAGCCCAUGACAGCUCCCC: 0.649
GUCCUGUGCUACACAUCGUAUGUACCGAAUCAAAUUUUUAAAUUUUUAAAUUUUUAAAAAAGUAUUAUGUUACGCCGUUCGGAUCUGCAC: -3.6
UGCAGAAGCAUCUUCAGUUGGAGAGCCAUUGCCUCUUGCUGUGAAAUAUUUGGGAAUCUUCAGAAACCAUGAAGAAUAACCUGCUAAAGG: -0.309
GUCCUGUGCUACACAUCGUAUGUACCGAAUCGGGUUUUUGGGGUUUUUGGGUUUUUGGAAAGUAUUAUGUUACGCCGUUCGGAUCUGCAC: -0.963
AAGUCCUGUGCUACACAUCGUAUGUACCGAAUCGGGAAAGGGAGGGAAAAAAAGGGAAAGUAUUAUGUUACGCCGUUCGGAUCUGCACUU: 0.105
UUCCUCAAGUCCUGUGCUACACAUCGUAUGUACCGAAUCGGCGGGCGGCGGAAAGUAUUAUGUUACGCCGUUCGGAUCUGCACUUCCAGC: 1.03
AAGUCCUGUGCUACACAUCGUAUGUACCGAAUCGGGUUUGGGUGGGAAAAAAAGGGAAAGUAUUAUGUUACGCCGUUCGGAUCUGCACUU: -0.967
CACAGACAACACGCACCCACACAUACACAGAGGGAAGGGGUUGGGAUGGGGACAGGGUGCACAGCAGGGCGGGGUAGGACCCCAGCCCCU: 0.158
CACAGACAACACGCACCCAAAAAGACACAGAGGGAAGGGGUUGGGAUGGGGACAGGGUGCACAGCAGGGCGGGGUAGGACCCCAGCCCCU: 0.563
CUGUGCUACACAUCGUAUGUACCGAAUCAAAGUGUGUGUGUGUGUAAAGUGUGUGUGUAAAAAAGUAUUAUGUUACGCCGUUCGGAUCUG: -1.5
CUCAAGUCCUGUGCUACACAUCGUAUGUACCGAAUCGGGCGGGGCGGGGCGGGGAAAGUAUUAUGUUACGCCGUUCGGAUCUGCACUUCC: -0.183

Set 2 — method: protein-binding microarray; molecule type: double-stranded DNA, one strand shown; medium: in vitro; concentration: 250 nM; setting: 60-bp whole probe; with: salmon DNA 0.4 mg/ml; baseline: random background probes; reading: higher = stronger binding; measurement: log fluorescence; shared flanks, not repeated: GCCTAGCAC … GTCTTGATTCGCTTGACGCTGCTG
Target: Interferon regulatory factor 7, full length, phosphomimetic (IRF7, Homo sapiens, UniProt Q92985, residues 1-503, S101K/S471D/S472D/S475D/S476D/S477D/S483D/S484D/S487D)
Target sequence (chain): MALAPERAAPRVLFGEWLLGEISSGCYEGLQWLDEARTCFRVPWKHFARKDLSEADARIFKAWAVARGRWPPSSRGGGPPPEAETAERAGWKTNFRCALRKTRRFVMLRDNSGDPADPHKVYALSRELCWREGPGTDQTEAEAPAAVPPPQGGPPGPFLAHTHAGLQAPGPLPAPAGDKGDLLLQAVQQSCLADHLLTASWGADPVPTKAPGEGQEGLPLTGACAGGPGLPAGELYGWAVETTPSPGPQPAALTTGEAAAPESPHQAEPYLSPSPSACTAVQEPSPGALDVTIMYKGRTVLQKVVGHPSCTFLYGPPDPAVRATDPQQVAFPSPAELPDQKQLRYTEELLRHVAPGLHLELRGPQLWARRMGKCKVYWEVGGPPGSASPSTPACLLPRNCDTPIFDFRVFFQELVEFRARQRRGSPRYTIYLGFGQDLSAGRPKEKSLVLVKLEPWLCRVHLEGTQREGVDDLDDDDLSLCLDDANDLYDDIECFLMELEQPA
GACGAGATCAGTATCGAGACGTGCTAG: -0.348 z-score
TTAGATTTCGGTACTGGATTAGTGCTA: 0.901 z-score
TTCGGACTGGACTATCGGTTAGTGCTA: -0.512 z-score
CTAAATATCTTTGTTGAAAAGTGCTAG: 0.659 z-score
GGGAGATGACTAAGAGGGGTGTGCTAG: -1.05 z-score
GACTGACTGGGACTGGGGACGTGCTAG: -0.363 z-score
TTATATATCGGGTTTCGATTAGTGCTA: 7.43 z-score
TCATTTATTTATTTTTAACTGTGCTAG: 1.12 z-score
GACGGACTGGGGTATAGGGACGTGCTA: -0.191 z-score
GACGATATCGGGACTGGGGACGTGCTA: -0.185 z-score
TTAGGTTCAGGTTTCGGTTAGTGCTAG: 8.66 z-score
TTAGGTATCGGGTATCGGTGAGTGCTA: 0.673 z-score
ACACATCTCACTCTAATCTCGTGCTAG: 0.513 z-score
GACGGACTGGCCACTGGGGACGTGCTA: -0.892 z-score
GACGGTTTCGCGTTTCGGGACGTGCTA: 7.76 z-score
TCATGTCTGTTTTTGCTACTGTGCTAG: 0.34 z-score
TCAACTTTCTTTTTTTCACTGTGCTAG: 1.05 z-score
GGCGGTTTCGGGTATCGGGACGTGCTA: 7.46 z-score
GACGAAATCAGTCTCGAGACGTGCTAG: 0.549 z-score
CTGCTTGAAACTCTTACCCCGTGCTAG: -0.125 z-score

Set 3 — organism: Saccharomyces cerevisiae; read-out: binding; method: yeast competitive growth sequencing; molecule type: peptide; strain: cyclin D2-Cln2 fusion strain; setting: peptide tiling library; reading: direction not given; measurement: enrichment score
RRRRLLFWDKETQI: -2.29
IPDRSTKPVVFSPT: 2.29
LFVPQRKLEVSTEDVH: -0.843
NCKKRRALDFLSRLPL: -1.57
VKTKKRLNFDDK: -0.452

Set 4 — method: protein-binding microarray; molecule type: double-stranded DNA, one strand shown; medium: in vitro; concentration: 0.8 µM; setting: whole 60-bp probe, no competitor; reading: higher = stronger binding; measurement: fluorescence intensity; shared flanks, not repeated: … GTCTTGATTCGCTTGACGCTGCTG
Target: Centromere-binding protein 1, full length, N-terminal tag (CBF1, Saccharomyces cerevisiae, UniProt P17106, residues 1-351)
UniProt P17106, sequence (whole entry, looked up): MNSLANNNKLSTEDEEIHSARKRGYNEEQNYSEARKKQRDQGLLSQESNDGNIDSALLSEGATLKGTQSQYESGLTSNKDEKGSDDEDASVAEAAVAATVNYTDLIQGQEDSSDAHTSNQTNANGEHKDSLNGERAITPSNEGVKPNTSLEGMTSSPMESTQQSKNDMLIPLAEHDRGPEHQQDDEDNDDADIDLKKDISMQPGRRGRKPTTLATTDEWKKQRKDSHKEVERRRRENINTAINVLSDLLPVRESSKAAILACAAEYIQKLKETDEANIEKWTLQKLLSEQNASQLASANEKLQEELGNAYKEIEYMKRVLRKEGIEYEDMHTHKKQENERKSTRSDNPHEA
GAATGTTCTATTAGTCTCATGATTTATGTCTTTTAG: 645 a.u.
CTATTGTACGGTTCGTACGTGGGCACAATGAATTTC: 505 a.u.
CTAAAGACCCAGAGGCACATGCAAGATAGTTGTTTC: 613 a.u.
CTAGAACAAATGTGTCACCAAGGTTGGAACAAATTC: 489 a.u.
CTAGGTGCATTACATCATGAAAGAGTATTATTATTC: 526 a.u.
CCTAACTACTATACATGCGTGGGATAGCTTCGTACA: 532 a.u.
GAATGAAAAGTTCTCCACACGTGTTTTTCTCTTTAG: 3340 a.u.
CTATCAGTATGACAATACGTCACCCTGAACGTTTTC: 547 a.u.
GAAGAGGCTGCTTATGTCGTGATGCTTATACTATAG: 622 a.u.
GAAAATTGAACGGTTGGTCAGGAGAACGAAGAATAG: 645 a.u.
CTAATCATACAATACATCAGGACCTGCGTACAATTC: 545 a.u.
CCTAACTACTATATCTTCGTGATATAGCTTCGTACA: 541 a.u.
GAATATGATGGTGATGGTGACGGTGATGGTAATTAG: 549 a.u.
CTAACTCTCACAGCTGATGTGATCCGAAGAAAATTC: 635 a.u.
GAATGAAAGGCCAATCATCTGATTTTCAATGGATAG: 706 a.u.
GAATTTTATCTAAATCATATGAGGAACGCTAGGTAG: 570 a.u.

Some of these lines once more (set 3):
NCKKRRALDFLSRLPL: -1.57
VKTKKRLNFDDK: -0.452
IPDRSTKPVVFSPT: 2.29
RRRRLLFWDKETQI: -2.29
LFVPQRKLEVSTEDVH: -0.843
